Experimental data collected from several papers.
Each numbered part is a random draw from the data of one study; scales do not carry over between parts. Changes are numbered by the printed parent chain.

Study 1 — method: protein-binding microarray; molecule type: double-stranded DNA, one strand shown; matrix: in vitro; tested at: not given; direction: higher = stronger binding
Target: Protein C-ets-1 (ETS1, Homo sapiens, UniProt P14921, residues 1-441, K379A, full length assumed)
Sequence of UniProt P14921 (whole entry, unmodified, looked up): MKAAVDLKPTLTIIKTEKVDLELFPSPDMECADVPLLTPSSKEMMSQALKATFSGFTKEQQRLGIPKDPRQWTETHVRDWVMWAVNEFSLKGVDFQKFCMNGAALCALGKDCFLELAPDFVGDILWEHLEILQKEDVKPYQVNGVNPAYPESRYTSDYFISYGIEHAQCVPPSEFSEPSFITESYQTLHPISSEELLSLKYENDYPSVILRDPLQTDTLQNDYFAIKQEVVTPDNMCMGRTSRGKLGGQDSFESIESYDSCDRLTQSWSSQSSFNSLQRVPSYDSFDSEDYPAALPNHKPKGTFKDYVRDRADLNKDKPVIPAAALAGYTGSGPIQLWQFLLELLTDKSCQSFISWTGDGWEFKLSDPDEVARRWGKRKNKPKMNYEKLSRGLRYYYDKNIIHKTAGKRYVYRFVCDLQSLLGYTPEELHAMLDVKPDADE
Notes: k-mer, scored over probes, only values ≥0.25
Sequence | E-score
ACCGTCGT | 0.298
GCCCTCCC | 0.255
ACAACACC | 0.281
GGTTATTA | 0.283
CCGTTGTC | 0.254
AACATGTA | 0.3
CCGGTTCA | 0.311
ATACTTCC | 0.26
GATAACAA | 0.265

Study 2 — target: CCNB1, cyclin fold, Cln2 fusion (human); method: yeast growth competition, sequencing; matrix: yeast; notes: strong parent motif; baseline: not given; direction: higher = stronger binding
Starting sequence: PKN2 docking peptide (human); VSAVQKLDFSDTM; partner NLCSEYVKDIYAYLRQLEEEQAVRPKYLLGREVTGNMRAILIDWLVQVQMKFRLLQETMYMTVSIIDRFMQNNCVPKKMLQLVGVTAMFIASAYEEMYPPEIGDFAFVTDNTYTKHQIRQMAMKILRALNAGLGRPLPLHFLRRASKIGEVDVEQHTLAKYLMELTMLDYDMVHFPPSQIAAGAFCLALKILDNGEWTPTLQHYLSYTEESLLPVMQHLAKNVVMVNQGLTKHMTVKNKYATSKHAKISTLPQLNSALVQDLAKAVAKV
Change | normalised enrichment score
VSAVQKLDFSDHM [T12H] | 2.03
VSAVQKLDFFDTM [S10F] | 1.04
MSAVQKLDFSDTM [V1M] | 2.64
VSAVQKLDRSDTM [F9R] | 0.611
VSFVQKLDFSDTM [A3F] | 1.03
VSTVQKLDFSDTM [A3T] | 1.2
VSYVQKLDFSDTM [A3Y] | 1.36

Study 3 — method: RNA Bind-n-Seq; molecule type: RNA; matrix: in vitro; tested at: 365 nM; baseline: no-protein control; direction: higher = stronger binding
Target: RNA binding protein fox-1 homolog 2, RRM domain, GST-SBP tag (RBFOX2, Homo sapiens, UniProt O43251-10, residues 100-194)
Notes: natural RNA segment, single round, ends assumed
Residues (chain): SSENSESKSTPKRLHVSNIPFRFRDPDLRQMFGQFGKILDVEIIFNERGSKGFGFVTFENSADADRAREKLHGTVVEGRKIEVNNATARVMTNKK
Sequence | RBNS enrichment (R)
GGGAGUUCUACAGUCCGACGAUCUCAUACUGGGAGGACCCCAGCUUUUCUUGCCAGCUCAGCAGUUCACUUCCUAGAGCAUCUGUCCCACUGGGACACAACCACUAAUUUGUCACUGGAACCUCCCUGGGCCUUGGAAUUCUCGGGUGCCAA | 0.574
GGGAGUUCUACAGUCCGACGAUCAUUCUUGGAAAAGCAGCUCCAGUUGGUUUUUCAACUGUCAAACUUGAAUGUGUAAGUCCCCACAGAGCAUGGACAGUCGGUGCAGAGUUCCAAGGAAACAAUUAUUGCCUUGGAAUUCUCGGGUGCCAA | 0.574
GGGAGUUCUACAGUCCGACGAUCUCCUGGAGCUAAUACACUGUUUCACUGCCUCUGCCAUAUAAUGAUGCCAGCACUAGCCAGCUGGUGGGUAUUUGGAGGAAUCCUGCAUGAGGAUUGCCCAAUAAGGGGCAUGGAAUUCUCGGGUGCCAA | 2.2
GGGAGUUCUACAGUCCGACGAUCCACACACAGACUUAUAAUGCAAAUGGAUCUCUGAUCAUAAAGGCCAAAAUUGUGUUCUAUCUCUACCUCGACAUGGGUGGUUCAACACAAAGUCGGUUAUUGGUGUCUAUUGGAAUUCUCGGGUGCCAA | 0.228
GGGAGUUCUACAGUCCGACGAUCUGAGUAAUGCAUUUGAGCUGUCCCAGGCUCUGUCUCCUCAGCUCAUUUCCUACUCUUUUUCUCUAUAUAACUCAUUCUAUUAAAUACAUUGCACCAAAGAGAUAUGGAGAUGGAAUUCUCGGGUGCCAA | 0.473
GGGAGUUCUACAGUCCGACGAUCAAAAGAAUUCUUGUUUUAGCACAGUUGAUGCACAUAAGUGAUUCUCAUAUUUGUUGUAUAAACUGGUUUAAUACAUUUGGAACAUAGUUGGAUUACAUUCAUUUCCUGGGUGGAAUUCUCGGGUGCCAA | 0.216
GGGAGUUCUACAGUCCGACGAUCCAGGAAACAUUUCUCUUGUAAUUUAAGAAAGUUAAGUCUAUAAACCAGCAUCAAGUGAUGUCUAGCCUCCCCUGUGCAAUACAGCUAGUUGUAUUUGUUGUGUUUAAGAAUGGAAUUCUCGGGUGCCAA | 0.653
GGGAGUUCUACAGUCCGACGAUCUCACUUUCAGAAAUUCAGGUGCACAAGGGAAACUUUCAAGUACGAUCCAAUUAUCUUUCUGAUCCUUAAAACACAUGACUUCCAGCUGAAGAGAUGGCUCAGUGGUUCAGUGGAAUUCUCGGGUGCCAA | 0.312

Mixed results
Molecule | target | test | test system | conditions | how to read | measurement | result
PhoQ, residues 284 288 289 292 302 303 SSYNSA | PhoP, residues 12 14 15 18 19 NMSFL (Escherichia coli, UniProt P23836) | Sort-seq, item: YFP reporter | E. coli | PhoQ-PhoP variant library, added: 10 µM Mg2+ | baseline: high Mg2+ state, higher = stronger signaling | fold induction | 11.7

A few entries again (study 1):
Sequence | E-score
ACAACACC | 0.281
ACCGTCGT | 0.298
